# Published values gathered from unrelated publications.
# Each numbered part is a random draw from the data of one study; scales do not carry over between parts.
# Chain of UniProt P53778 (whole entry, looked up): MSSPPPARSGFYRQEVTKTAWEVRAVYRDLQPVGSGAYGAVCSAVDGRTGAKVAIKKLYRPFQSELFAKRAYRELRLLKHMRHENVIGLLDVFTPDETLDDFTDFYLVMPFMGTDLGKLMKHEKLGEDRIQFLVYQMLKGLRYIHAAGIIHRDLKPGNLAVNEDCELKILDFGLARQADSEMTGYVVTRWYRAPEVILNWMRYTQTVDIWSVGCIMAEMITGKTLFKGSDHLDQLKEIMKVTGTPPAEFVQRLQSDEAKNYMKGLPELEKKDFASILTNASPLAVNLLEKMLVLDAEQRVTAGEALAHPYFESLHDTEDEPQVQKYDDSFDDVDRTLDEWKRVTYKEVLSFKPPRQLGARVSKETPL
# Chain of UniProt P10721 (whole entry, unmodified, looked up): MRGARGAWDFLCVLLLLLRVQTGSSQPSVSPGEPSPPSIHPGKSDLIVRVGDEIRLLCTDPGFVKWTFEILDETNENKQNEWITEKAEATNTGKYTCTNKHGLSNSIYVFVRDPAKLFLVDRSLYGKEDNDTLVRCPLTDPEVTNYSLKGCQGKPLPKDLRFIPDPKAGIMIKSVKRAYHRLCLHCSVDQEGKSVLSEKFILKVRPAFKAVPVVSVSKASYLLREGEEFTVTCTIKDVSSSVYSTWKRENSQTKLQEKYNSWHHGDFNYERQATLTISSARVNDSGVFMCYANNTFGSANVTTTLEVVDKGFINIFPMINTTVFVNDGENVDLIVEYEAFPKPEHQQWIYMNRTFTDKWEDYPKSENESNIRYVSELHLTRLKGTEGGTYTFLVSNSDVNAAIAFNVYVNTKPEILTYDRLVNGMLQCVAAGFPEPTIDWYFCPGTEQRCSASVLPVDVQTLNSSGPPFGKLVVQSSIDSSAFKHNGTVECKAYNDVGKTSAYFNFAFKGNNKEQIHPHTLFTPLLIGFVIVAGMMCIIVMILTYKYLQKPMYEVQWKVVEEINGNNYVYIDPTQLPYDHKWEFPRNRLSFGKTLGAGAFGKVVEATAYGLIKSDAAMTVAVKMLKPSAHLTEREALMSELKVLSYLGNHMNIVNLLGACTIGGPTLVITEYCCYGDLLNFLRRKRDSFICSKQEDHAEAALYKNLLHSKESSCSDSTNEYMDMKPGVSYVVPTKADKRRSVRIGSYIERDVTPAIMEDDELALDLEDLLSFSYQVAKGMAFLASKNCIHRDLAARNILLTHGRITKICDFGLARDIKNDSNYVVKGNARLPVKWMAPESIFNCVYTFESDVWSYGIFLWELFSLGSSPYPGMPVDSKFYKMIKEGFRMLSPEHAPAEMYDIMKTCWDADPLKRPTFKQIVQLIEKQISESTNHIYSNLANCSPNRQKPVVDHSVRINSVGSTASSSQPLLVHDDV
# Chain of UniProt Q99759 (whole entry, looked up): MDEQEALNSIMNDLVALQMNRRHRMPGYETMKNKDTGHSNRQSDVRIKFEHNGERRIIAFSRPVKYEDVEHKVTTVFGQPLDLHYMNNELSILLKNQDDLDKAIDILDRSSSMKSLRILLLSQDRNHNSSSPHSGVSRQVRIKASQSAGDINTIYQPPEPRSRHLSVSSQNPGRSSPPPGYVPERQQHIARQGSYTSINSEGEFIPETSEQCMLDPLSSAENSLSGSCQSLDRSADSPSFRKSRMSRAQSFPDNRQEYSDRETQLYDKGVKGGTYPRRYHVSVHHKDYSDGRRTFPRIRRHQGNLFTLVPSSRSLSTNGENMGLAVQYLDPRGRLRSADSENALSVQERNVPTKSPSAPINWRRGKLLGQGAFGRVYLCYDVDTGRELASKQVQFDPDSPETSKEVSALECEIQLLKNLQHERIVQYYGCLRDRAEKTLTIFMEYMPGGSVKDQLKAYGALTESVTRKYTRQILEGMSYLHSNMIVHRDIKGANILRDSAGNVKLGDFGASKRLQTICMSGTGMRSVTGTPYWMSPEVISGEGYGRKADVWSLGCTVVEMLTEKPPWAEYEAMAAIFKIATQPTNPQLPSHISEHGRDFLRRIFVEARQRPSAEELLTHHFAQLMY

# Set 1
# SMILES: O=C(NCCCC1CCCCC1)c1ccc(CNC(=O)c2cnn(-c3ccccc3)c2C(F)(F)F)cc1
# Read-out: cell-free assay
# Technique: competition with immobilised ligand
# Tested at: 0.1 µM
target,remaining binding
"MAP3K3 (Homo sapiens, UniProt Q99759)",100%
"KIT (Homo sapiens, UniProt P10721, D816V)",100%
"PKN1 (Homo sapiens, UniProt Q16512)",100%
"MAPK12 (Homo sapiens, UniProt P53778)",100%

# Set 2
# Target: Histone acetyltransferase KAT6A, winged helix 2, GST fusion (KAT6A, Homo sapiens, UniProt Q92794, residues 85-181)
# Technique: protein binding microarray
# Molecule type: double-stranded DNA, one strand shown
# Medium: in vitro
# Tested at: not given
# Notes: 8-mer, flanks averaged, mean of 2 arrays, mostly near background
# Reference: not given
# Direction: higher = stronger binding
# Construct (chain): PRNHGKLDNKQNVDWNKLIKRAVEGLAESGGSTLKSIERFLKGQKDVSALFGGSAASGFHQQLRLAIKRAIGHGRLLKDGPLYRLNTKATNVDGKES
Sequence,E-score
AGGAGTAT,-0.201
CCTGATCC,0.0278
ATCCTATG,-0.126
AGCTGACA,0.117
GCGTACTA,-0.00347
ACTATGAT,0.0582
AATTCAAA,0.068
TCTTCTAA,-0.023

# Set 3
# Target: Tyrosine-protein kinase receptor UFO (AXL, Homo sapiens, UniProt P30530)
# Read-out: enzyme activity
# Mode: inhibitor
# Tested at: 0.5 µM
# Reference: control
# Target sequence (P30530 1-894): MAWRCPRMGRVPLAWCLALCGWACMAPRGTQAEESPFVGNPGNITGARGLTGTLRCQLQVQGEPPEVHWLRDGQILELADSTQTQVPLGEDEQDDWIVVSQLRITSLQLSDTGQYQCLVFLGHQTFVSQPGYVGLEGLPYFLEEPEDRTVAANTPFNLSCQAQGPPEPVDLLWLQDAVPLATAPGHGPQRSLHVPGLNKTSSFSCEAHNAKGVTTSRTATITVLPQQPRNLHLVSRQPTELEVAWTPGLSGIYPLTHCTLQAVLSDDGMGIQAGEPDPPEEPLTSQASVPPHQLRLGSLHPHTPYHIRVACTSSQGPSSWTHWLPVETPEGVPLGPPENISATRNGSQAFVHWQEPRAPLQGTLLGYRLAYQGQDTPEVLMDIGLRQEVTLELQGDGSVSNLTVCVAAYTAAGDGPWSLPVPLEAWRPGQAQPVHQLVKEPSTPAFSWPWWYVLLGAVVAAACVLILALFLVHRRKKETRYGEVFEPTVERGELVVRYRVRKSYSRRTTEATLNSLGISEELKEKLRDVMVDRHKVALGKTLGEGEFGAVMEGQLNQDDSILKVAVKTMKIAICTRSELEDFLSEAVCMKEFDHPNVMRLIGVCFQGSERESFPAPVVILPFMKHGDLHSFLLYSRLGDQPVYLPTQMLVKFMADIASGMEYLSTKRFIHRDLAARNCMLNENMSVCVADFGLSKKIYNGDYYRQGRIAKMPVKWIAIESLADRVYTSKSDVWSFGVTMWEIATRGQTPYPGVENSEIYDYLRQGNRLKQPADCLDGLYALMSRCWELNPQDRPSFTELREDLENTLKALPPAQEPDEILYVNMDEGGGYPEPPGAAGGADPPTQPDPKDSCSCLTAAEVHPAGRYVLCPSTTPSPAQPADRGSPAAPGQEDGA
SMILES,remaining activity [%]
Cc1ccc(NC(=O)c2ccc(CN3CCN(C)CC3)cc2)cc1Nc1nc(-c2cccnc2)cs1,86.5
OCC(O)CCON=C1C(c2c(O)[nH]c3ccccc23)=Nc2ccccc21 (stereo not drawn),42.7
COc1cc2ncnc(Nc3ccc(F)c(Cl)c3)c2cc1OCCCN1CCOCC1,88.8
Nc1[nH]nc2nc3ccccc3nc12,91.2
N#CC(C#N)=C(N)/C(C#N)=C/c1ccc(O)cc1,93.7
CCOC(=O)c1c(C)[nH]c(/C=C2\C(=O)Nc3ccccc32)c1C,88.9
CNC(=O)c1cc(Oc2ccc(NC(=O)Nc3ccc(Cl)c(C(F)(F)F)c3)cc2)ccn1,105
CN(C)c1ccc(C=C2C(=O)Nc3ccccc32)cc1,93.8
O=S(=O)(c1cccc2cnccc12)N1CCCNCC1,97.2
COc1ccc(CNC(=O)Nc2ncc([N+](=O)[O-])s2)cc1,92
O=C(CCCc1ccc(-c2ccccc2F)cc1)Nc1ccc(O)cc1,91.4
Cn1c2ccccc2c2c3c(c4c5ccccc5n(CCC#N)c4c21)CNC3=O,102
O=C(Nc1cccc(Nc2cc(Nc3cccc(C(F)(F)F)c3)ncn2)c1)C1CC1,98.7

# Set 4
# Target: Prothrombin, mature alpha-thrombin (F2, Homo sapiens, UniProt P00734)
# Technique: aptamer microarray, sandwich
# Molecule type: DNA with 2'F-ANA
# Medium: in vitro
# Tested at: 200 nM
# Notes: whole 15-mer aptamer, many near background
# Together with: Cy3 exosite-II aptamer, 400 nM
# Direction: higher = stronger binding
# Sequence: GGTTGGTGTGGTTGG
Modification,mean fluorescence intensity [a.u.]
2'F-ANA at 2 3 5 6 7 8 9 10 13,74
2'F-ANA at 2 3 4 5 9 10 11 15,53.2
2'F-ANA at 1 2 5 6 8 14 15,46.1
2'F-ANA at 3 4 5 6 9 10 12 14,68.9
2'F-ANA at 1 2 3 5 11 13 14 15,49
2'F-ANA at 5 7 8 10 11,48.4
2'F-ANA at 1 3 4 7 8 9 12 13 14,79.1
2'F-ANA at 1 2 5 10 12,47.5

# Some of these lines once more (set 2):
Sequence,E-score
AGCTGACA,0.117
AGGAGTAT,-0.201
CCTGATCC,0.0278
ACTATGAT,0.0582
AATTCAAA,0.068
